Assay results pooled from the literature.
Numbers after ± are the reported error.
UCHL1: Ubiquitin carboxyl-terminal hydrolase isozyme L1 (UCHL1, Homo sapiens, UniProt P09936)
UniProt P09936, sequence (whole entry, looked up): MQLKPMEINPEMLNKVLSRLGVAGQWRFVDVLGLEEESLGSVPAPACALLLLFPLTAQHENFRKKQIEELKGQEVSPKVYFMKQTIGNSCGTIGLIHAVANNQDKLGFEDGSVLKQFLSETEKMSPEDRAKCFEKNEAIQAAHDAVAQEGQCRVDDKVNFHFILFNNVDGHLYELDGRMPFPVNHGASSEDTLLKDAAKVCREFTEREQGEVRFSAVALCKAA

Under “point of departure”, CC(C)(C)c1cc(O)ccc1O is recorded as 16.6 µM (HepG2; high content imaging, item: DNA structure; 24 h, distribution mode 1).
COc1ccc(NC(=O)c2c(Nc3ccccc3)sc(C#N)c2NC(=O)CNc2ccc(Cl)cc2)cc1 — result for “cells in Apoptosis”: 8.23 ± 0.23% (HepG2; flow cytometry; IC50, 24 h).
Under “point of departure”, CCc1ccc(CCOc2ccc(CC3SC(=O)NC3=O)cc2)nc1 (centres unmarked) is recorded as 81.3 µM (HepG2; CellTiter-Glo, item: cellular ATP; 24 h, distribution mode 2).
The labelling of CCCCNC(=O)C(C#N)=Cc1cccc(Cl)c1Cl is reported as 32.7% (UCHL1; covalent, intact protein LC-MS; 12.5 µM).
For COc1ccc(-n2nc(C(C)=O)s/c2=N\N=C(/C)c2ccc(NC(=O)c3ccccc3)cc2)cc1, the toxicity was 96.9% (HepG2; 10 µM).
For COc1ccc(NC(=O)c2c(Nc3ccccc3)sc(C(=O)NN=Cc3ccc(OC)c(O)c3)c2NC(C)=O)cc1, “cells in G1” read 49.5 ± 3.54% (HepG2; flow cytometry; IC50, 24 h).
For O=C(/C=C/c1cccc(S(=O)(=O)Nc2ccccc2)c1)NO, “IL-1β mRNA level” read “decreased” (HepG2; 25 µg/mL; reference: untreated).
CCOC(=O)c1nn(-c2cccc(Cl)c2)/c(=N/N=C(\C)c2ccc(NC(=O)c3ccccc3)cc2)s1 gave a cytotoxicity of 97% (HepG2; MTT; 5 µM).
For Cc1cc(C)c(NC(=O)C(C#N)=Cc2ccc(C(C)(C)C)cc2)c(C)c1, the labelling was 9.86% (UCHL1; covalent, intact protein LC-MS; 12.5 µM).
Under “point of departure”, CCOC(=O)/C=C\C(=O)OCC is recorded as 10.5 µM (HepG2; item: glutathione; 24 h, distribution mode 1).
CC(=O)Nc1ccc(/C(C)=N/N=c2\sc(C(C)=O)nn2-c2ccc(C)cc2)cc1 has a cytotoxicity of 51.2% (HepG2; MTT; 10 µM).
CC(=O)c1nn(-c2ccc(Cl)cc2)/c(=N/N=C(\C)c2ccc(NC(=O)c3ccc(Cl)cc3)cc2)s1 has a toxicity of 38.1% (HepG2; 5 µM).
Cc1nc2ccccc2n(CC(=O)Nc2ccc(C(=O)Nc3cccc(Cl)c3)cc2)c1=O — result for “late apoptotic cells”: 0.52 ± 0.09% (HepG2; Annexin V-FITC/PI staining; 2.3 µM).
Under “point of departure”, CN(CCOc1ccc(CC2SC(=O)NC2=O)cc1)c1ccccn1 (centres unmarked) is recorded as 1.2 µM (HepG2; extracellular flux, item: reserve respiratory capacity; 6 h, distribution mode 2).
CC(=O)c1nn(-c2ccc(C)cc2)/c(=N/N=C(\C)c2ccc(NC(=O)c3ccccc3)cc2)s1 has a cytotoxicity of 94.9% (HepG2; MTT; 0.312 µM).
For O=C(O)Cc1ccccc1Nc1c(Cl)cccc1Cl, “point of departure” read 219 µM (HepG2; item: HIF1alpha level; 6 h, mode 2 of PoD distribution).
For Nc1ccn([C@H]2CC[C@@H](CO)O2)c(=O)n1, “mitochondrial DNA content” read 94.7 ± 3.4% (HepG2; qPCR; 0.2 µM, 10 days, 2; reference: untreated).

A few entries again:
Cc1nc2ccccc2n(CC(=O)Nc2ccc(C(=O)Nc3cccc(Cl)c3)cc2)c1=O — result for “late apoptotic cells”: 0.52 ± 0.09% (HepG2; Annexin V-FITC/PI staining; 2.3 µM).
CC(=O)c1nn(-c2ccc(C)cc2)/c(=N/N=C(\C)c2ccc(NC(=O)c3ccccc3)cc2)s1 has a cytotoxicity of 94.9% (HepG2; MTT; 0.312 µM).
